Measurements from different studies.
A part holds a random share of what one study measured. Positions count from the first letter of the parent shown.

Set 1 — method: protein-binding microarray; form: double-stranded DNA, one strand shown; sample: in vitro; tested at: 940 nM top; notes: 60-bp whole probe; added: salmon DNA 0.4 mg/ml; relative to: random background probes; reading: higher = stronger binding; quantity: fitted relative affinity; all sequences stand within: GCCTAGCAC … GTCTTGATTCGCTTGACGCTGCTG
Target: Interferon regulatory factor 5, full length, phosphomimetic (IRF5, Homo sapiens, UniProt Q13568-2, residues 1-514, S451D/S453D/S456D/S462D)
TTAGGACTGGACTATCGGTTTGTGCTA: -0.217 z-score
GCCGGTTTCGGACTGGGGACGTGCTAG: 7.15 z-score
GACGGGTTCGGTTTCGGGACGTGCTAG: 3.87 z-score
TTAGGTTTCGACTTTCGGTTTGTGCTA: 8.93 z-score
TTAGGTTTCGGACAGGGTTAGTGCTAG: 6.88 z-score
AGCCATCTGCAGCAGGCCCCGTGCTAG: -0.137 z-score
TTAGGACTGGACATTGGGTTAGTGCTA: -0.451 z-score
TTAGGTCTCGGTCTCGGTTAGTGCTAG: 5.83 z-score

Set 2 — method: protein binding microarray; form: double-stranded DNA, one strand shown; sample: in vitro; tested at: not given; relative to: not given; reading: higher = stronger binding; quantity: E-score
Target: Histone acetyltransferase KAT6A, winged helix 2, GST fusion (KAT6A, Homo sapiens, UniProt Q92794, residues 85-181)
Notes: 8-mer, flanks averaged, mean of 2 arrays, mostly near background
Construct (chain): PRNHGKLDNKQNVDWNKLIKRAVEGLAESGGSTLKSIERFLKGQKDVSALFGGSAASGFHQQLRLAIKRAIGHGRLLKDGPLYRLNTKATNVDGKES
GCCTCAGA: 0.0982
AGAACCAA: -0.11
ATGGGAAT: -0.157
CACGGGCC: 0.0561
ACTCCCCC: -0.17
GCTTTCGA: 0.0154
ACAACGGC: -0.0406
ATGTCTCA: -0.108

Set 3 — target: CCND3, cyclin fold, Cln2 fusion (human); method: yeast growth competition, sequencing; sample: yeast; notes: weak parent motif; relative to: not given; reading: higher = stronger binding; quantity: normalised enrichment score; starting sequence: viral docking peptide; KGVKRKLFAEDSS
KGVKLKLFAEDSS [R5L]: -0.298
KGVKRKLAAEDSS [F8A]: 0.209
KGVKRKLPAEDSS [F8P]: 0.289

Set 4 — effect on: peptide-MHC binding; form: peptide; tested at: concentration not given; quantity: binding
Target: HLA class I histocompatibility antigen, A alpha chain, allele A*25:01 (Homo sapiens, UniProt P04439)
AMITYITRK: inactive
ETIGLVRAL: active
AARHKHQVM: inactive

For quick reference, copied from above (set 1):
TTAGGACTGGACTATCGGTTTGTGCTA: -0.217 z-score
TTAGGTTTCGACTTTCGGTTTGTGCTA: 8.93 z-score
GACGGGTTCGGTTTCGGGACGTGCTAG: 3.87 z-score
TTAGGTTTCGGACAGGGTTAGTGCTAG: 6.88 z-score
